Assay results of several laboratories.
Numbered parts are unrelated; each lists some results of a single study.

Sample 1
Target: RING finger protein unkempt homolog, zinc fingers 1-6, GST-SBP tag (UNK, Homo sapiens, UniProt Q9C0B0, residues 30-357)
Technique: RNA Bind-n-Seq
Form: RNA
Medium: in vitro
Concentration: not given
Notes: RNA with constant flanks, ends assumed
Baseline: input RNA pool
Reading: higher = stronger binding
Endpoint: bound/input enrichment
Constant ends, left off below: GGGAGUUCUACAGUCCGACGAUC … CAACAGAGGAUUGAGCAUCA
Construct (chain): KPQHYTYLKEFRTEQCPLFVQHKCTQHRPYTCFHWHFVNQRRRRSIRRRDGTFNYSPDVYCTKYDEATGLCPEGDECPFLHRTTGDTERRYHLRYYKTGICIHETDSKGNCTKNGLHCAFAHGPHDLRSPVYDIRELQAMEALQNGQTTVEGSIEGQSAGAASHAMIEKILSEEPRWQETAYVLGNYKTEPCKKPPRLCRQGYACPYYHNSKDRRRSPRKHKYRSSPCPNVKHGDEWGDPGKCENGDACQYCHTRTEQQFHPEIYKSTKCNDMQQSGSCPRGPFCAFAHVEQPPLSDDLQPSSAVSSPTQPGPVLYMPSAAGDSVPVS
UCUCCAUCUUGUUACAUUCCACUGCGGAGACUACAGGAUUUGGCCUCCAUGAUCAAUGCCGAAUAUUUAAGUGGGUCUGCUGAUGGAUCAGAAUCCUUUCAAGACCCUGCAAAAAGUGAU: 0.0946 ratio
GUUAUUGAAAAACUGUUAACCUCUUACGGAUUUAUUCAGUGUUCAGAACGUCAAGCCCGACUUUUCUUCCACUGUUCACAGUAUAAUGGCAACCUGCAAGACUUAAAAGUAGGAGAUGAU: 0.253 ratio
GCUUCAGAUGACAUGACUGUGGUAGAUGCAGCUUCAUUAAGACGUCAGAUAAUCAAAUUAAACCGACGUCUCCAACUUCUGGAAGAGGAGAAUAAAGAGCGUGCUAAAAGAGAAAUGGUC: 0.43 ratio
GUUGGUACCUCUGUAAAAACUUUAGUGUUAGCGUACAGCUCUGCAGUCUCCAGCAAAAUGGUCCGGCAGAUUUUAGAGCUUUGUCCUAACCUGGAACAUCUGGAUCUUACCCAGACCGAC: 0.552 ratio
UAUUCAUGCAGGGGCUGCCCCACGAGCUCAGGCAAGGCCCCCGUGGGCUUUGCGUAGUUCCCGUUCUUCAAUUUGGUUACUGCGCGAGUGUGUCCUGGAAGGAAUUUGUAUGGGAUUGUG: 0.177 ratio
CUCACAAACAGCCAUUUGGAAAAAAAGAAGUGUGAUGAGUAUAUUCCAGGUACAACCUCCUCCGGCAUGUCUGUUUUUAACCUAAGCAACGCCAUUAUGGGCAGUGGGAUUUUGGGACUC: 0.361 ratio
CCCAAGGAGACUAAGGAGGACGGAAGAACAGGUGAGGCACAAGGACCCGUGUAAACUCAUCUCCGACCAUCCCAUUCUUGAGUGGCCAGCUCAGAGCUCAAGGCUGGAAGAAAAAGAGCC: 0.109 ratio
CGCAUCUUUCAUCAGAAUGCAGUCGUGUCUAAGAGUGGGUAUUUUGUGAUAAUGUUUACUACCGAUCAUUUGUUAAUUUUGAUGCCUUCAUUUUAGCUAAUUUCAGAAUUUUUAUUAGGU: 9.62 ratio

Sample 2
Target: Phosphate system positive regulatory protein PHO4, full length, GST-tagged (PHO4, Saccharomyces cerevisiae, UniProt P07270, residues 1-312)
Technique: competition protein-binding microarray
Form: double-stranded DNA, one strand shown
Medium: in vitro
Concentration: 2 µM
Notes: whole 60-bp probe, lowest competitor level
Added: Cbf1 competitor, 0.05 µM
Reading: higher = stronger binding
Endpoint: fluorescence intensity
Constant ends, left off below: … GTCTTGATTCGCTTGACGCTGCTG
Target sequence (chain): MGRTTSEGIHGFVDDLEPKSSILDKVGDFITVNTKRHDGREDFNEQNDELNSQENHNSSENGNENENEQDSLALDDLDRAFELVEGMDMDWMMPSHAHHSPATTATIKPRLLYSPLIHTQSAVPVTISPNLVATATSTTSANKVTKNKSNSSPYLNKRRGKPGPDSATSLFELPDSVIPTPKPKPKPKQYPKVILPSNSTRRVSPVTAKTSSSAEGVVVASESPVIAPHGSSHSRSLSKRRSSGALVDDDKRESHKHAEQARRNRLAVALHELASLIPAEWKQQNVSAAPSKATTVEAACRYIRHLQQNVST
GAGGTTGGTACTATGAACGTGTTCCTGGTTTTCCTG: 9480 a.u.
CTTTAAGTGCCGGGACAAGTTCCTGGTTATCGCGTT: 3440 a.u.
CACATCTCCCTTGCGCCCGTGCTTTTATATATATAA: 9390 a.u.
CATACCCAACCTTGAGATGTGGGTGAAGATATTTGT: 4050 a.u.
CCAGTGCTGCCCCGCCACATGCAATCGGGCCGTCGG: 8120 a.u.
CTTTCCCGATCTTTTCACGTGTCATTAGCACATTTG: 13300 a.u.
TGCGCAACAACTTGATAAGTGGGTGTATGTCTAGAA: 4410 a.u.
AAAGCGGTAATTTGAACGGTGGGTGCAGATATCTAT: 4030 a.u.
AAAGCGGTAATTTTTCACGTGGTTTCACATATCTAT: 15000 a.u.
CGTCCTAGTGATTTTCACGTGTCGTCCATGAGGAAG: 12500 a.u.
GCGTCCTGTAAAGAGAGCGTGCGATAAGCCGCTATT: 7740 a.u.
AAAGCGGTAATTTGATCTGTGGGTGCAGATATCTAT: 3550 a.u.
AAGTCCTGGCACTTGCATGTGGTTTCGTAGAAGGTA: 8600 a.u.
CTTTCCCGATCTTGTGTTGTGGGTGTAGCACATTTG: 6340 a.u.
AACTGCTGAAGTCCCCATGTGACAGTGAGCGGGGTC: 9480 a.u.
CATGCCATAAGCCATCACCTGGCCAGTTGGCGTATG: 3990 a.u.
ACACTGCTTTGTACCCACGTTTCAAGAAATGGTGTG: 14800 a.u.
CGTCCTAGTGATTGGCGCGTGGGTGCCATGAGGAAG: 12100 a.u.
AAAGCGGTAATTTGGCACGTGTTTTCACATATCTAT: 18500 a.u.

Sample 3
Target: Sal-like protein 4, full length isoform B (SALL4, Homo sapiens, UniProt Q9UJQ4-2, residues 1-616)
Technique: universal PBM
Form: double-stranded DNA, one strand shown
Medium: in vitro
Concentration: not given
Notes: 8-mer, flanks averaged, mean of replicates
Reading: higher = stronger binding
Endpoint: E-score
CGTCGACC: -0.127
TTATCGAA: 0.227
AGGTGCGC: -0.169
AAGTGAAA: 0.141
CAACCCCC: -0.123
AAATGAAT: 0.339
AGCCCTGG: -0.282
AGTTGCCG: -0.288
ATGTTCGC: 0.0668
ACGGGTAA: -0.0255
CCAACAGG: -0.257
GGCGACGA: -0.243
ATAACGGG: 0.0928
AGATGAGG: -0.105
AAACAGGA: 0.0906
TCCGTCCA: -0.0982
AAAGAGGA: -0.172
AATATGAC: 0.39
AACCCGTT: -0.144
CACGACCC: -0.0747
ATACGGGC: -0.147
GTGGAATA: 0.14

Sample 4
Target: Histone acetyltransferase KAT6A, winged helix 1, GST fusion (KAT6A, Homo sapiens, UniProt Q92794, residues 1-85)
Technique: protein binding microarray
Form: double-stranded DNA, one strand shown
Medium: in vitro
Concentration: not given
Notes: 8-mer, flanks averaged, mean of 2 arrays, mostly near background
Baseline: not given
Reading: higher = stronger binding
Endpoint: E-score
Construct (chain): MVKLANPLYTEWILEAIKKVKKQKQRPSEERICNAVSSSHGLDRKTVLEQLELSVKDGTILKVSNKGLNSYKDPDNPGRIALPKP
GAGTGGAC: -0.0888
ACTCAGGA: -0.109
CGCGTCTA: 0.312
CGCGCCTC: 0.36
AACGTCAC: -0.112
CGTGCCTA: -0.0261
TAGACGGA: 0.1
CTAGTGTA: -0.0281
TAAGCTCA: -0.109
GAACTTGC: -0.11
CATTTTCC: 0.0113
AAACCTAC: -0.175
GGGAACAA: 0.021
CAAGCGCC: 0.372
GAGGAACC: 0.0341
CGCGATCC: 0.292
GAGTGGGA: -0.136
AGAGTGCA: -0.135
GATACCCC: -0.0362
CTCTGCGA: -0.0427
GTCGAAGA: -0.0854
GCATTTCC: 0.059
AAGGCTAT: -0.0908
